Measurements collected from several papers.
Parts stem from different laboratories: compare values within a part only.
Chain of UniProt Q9BYP7 (whole entry, looked up): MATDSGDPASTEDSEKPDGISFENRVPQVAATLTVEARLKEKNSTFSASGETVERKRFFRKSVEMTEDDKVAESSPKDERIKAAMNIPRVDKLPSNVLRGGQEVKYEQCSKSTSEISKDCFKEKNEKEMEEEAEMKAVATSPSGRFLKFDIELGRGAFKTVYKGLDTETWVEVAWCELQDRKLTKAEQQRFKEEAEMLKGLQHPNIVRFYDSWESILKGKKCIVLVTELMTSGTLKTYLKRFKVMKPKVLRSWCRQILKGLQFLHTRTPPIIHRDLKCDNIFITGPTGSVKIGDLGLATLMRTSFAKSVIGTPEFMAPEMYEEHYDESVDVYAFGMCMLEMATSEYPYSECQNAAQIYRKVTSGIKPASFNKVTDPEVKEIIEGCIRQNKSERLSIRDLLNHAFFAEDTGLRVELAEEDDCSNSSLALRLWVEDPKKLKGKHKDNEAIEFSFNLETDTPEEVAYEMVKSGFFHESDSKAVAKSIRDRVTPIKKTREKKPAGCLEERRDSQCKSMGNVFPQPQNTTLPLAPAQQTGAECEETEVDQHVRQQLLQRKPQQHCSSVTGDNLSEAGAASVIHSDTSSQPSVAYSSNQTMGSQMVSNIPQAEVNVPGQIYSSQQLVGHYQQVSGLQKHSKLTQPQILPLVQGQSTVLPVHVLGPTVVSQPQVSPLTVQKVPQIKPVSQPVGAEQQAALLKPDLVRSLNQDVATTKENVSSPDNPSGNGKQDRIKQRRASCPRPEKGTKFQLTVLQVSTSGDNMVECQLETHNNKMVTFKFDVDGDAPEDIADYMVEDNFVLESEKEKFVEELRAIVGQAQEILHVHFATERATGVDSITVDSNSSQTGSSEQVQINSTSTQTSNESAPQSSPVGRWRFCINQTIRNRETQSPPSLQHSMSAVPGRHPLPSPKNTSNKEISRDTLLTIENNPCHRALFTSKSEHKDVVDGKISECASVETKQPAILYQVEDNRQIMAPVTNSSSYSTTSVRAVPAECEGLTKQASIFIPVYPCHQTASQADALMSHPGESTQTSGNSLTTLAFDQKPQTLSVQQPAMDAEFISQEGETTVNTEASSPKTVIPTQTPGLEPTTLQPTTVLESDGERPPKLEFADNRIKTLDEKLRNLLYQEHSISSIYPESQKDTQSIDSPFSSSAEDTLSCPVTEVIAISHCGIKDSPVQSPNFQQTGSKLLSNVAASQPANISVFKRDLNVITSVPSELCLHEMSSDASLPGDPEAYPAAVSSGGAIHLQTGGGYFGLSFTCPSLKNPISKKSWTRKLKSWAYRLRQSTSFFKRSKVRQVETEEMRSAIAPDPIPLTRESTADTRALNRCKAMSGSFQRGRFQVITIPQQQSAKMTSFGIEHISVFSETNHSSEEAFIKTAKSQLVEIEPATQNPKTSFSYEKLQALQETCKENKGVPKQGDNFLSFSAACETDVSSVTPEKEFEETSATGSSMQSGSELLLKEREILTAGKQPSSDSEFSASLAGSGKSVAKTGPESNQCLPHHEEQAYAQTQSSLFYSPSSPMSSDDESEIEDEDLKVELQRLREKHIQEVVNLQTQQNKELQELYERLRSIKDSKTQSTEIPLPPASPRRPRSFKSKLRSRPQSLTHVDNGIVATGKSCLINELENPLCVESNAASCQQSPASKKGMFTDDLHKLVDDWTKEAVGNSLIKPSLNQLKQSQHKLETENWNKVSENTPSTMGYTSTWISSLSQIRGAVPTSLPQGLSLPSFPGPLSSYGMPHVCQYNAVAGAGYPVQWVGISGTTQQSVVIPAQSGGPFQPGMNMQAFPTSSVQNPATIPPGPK
Chain of UniProt Q16816 (whole entry, looked up): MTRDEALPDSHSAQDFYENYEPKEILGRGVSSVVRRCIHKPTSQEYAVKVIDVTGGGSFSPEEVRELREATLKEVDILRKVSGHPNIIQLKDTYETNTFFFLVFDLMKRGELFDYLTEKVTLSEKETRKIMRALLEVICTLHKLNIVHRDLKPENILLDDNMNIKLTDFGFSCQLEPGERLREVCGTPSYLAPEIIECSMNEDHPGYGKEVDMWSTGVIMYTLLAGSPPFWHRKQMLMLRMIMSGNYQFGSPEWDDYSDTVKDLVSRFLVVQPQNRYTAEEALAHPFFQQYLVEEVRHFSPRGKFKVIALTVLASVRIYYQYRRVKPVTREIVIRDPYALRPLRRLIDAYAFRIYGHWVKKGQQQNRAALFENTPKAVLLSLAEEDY
Chain of UniProt Q06187 (whole entry, looked up): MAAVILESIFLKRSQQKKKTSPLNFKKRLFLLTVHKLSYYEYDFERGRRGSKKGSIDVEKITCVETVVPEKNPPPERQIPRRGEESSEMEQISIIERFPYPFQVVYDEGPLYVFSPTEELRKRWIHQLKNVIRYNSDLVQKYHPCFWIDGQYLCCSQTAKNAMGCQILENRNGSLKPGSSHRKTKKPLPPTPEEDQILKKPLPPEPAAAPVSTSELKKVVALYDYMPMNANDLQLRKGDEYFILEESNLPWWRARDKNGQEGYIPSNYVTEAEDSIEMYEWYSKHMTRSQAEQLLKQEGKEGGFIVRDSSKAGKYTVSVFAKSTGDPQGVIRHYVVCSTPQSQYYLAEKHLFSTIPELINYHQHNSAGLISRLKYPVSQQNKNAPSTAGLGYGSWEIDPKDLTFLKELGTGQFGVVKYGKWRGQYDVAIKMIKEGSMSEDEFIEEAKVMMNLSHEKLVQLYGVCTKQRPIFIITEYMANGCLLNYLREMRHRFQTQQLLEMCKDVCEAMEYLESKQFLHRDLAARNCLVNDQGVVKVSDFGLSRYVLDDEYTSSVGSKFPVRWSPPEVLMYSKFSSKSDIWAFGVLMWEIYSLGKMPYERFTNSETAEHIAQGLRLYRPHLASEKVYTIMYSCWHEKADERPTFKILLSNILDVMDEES
Chain of UniProt P42685 (whole entry, looked up): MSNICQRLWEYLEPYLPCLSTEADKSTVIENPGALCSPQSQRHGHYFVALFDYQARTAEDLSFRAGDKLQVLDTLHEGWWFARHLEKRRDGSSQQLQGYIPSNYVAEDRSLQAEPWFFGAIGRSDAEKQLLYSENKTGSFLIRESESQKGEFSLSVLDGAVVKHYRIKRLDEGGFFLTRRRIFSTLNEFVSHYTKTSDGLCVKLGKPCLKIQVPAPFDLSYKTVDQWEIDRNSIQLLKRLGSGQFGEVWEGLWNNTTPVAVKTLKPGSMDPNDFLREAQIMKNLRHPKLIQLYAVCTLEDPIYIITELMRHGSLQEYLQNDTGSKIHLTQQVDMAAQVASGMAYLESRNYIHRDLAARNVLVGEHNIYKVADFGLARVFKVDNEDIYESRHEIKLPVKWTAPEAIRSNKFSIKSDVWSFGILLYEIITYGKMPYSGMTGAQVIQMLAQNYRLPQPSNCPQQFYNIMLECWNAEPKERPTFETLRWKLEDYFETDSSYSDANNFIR
Chain of UniProt Q9HC98 (whole entry, looked up): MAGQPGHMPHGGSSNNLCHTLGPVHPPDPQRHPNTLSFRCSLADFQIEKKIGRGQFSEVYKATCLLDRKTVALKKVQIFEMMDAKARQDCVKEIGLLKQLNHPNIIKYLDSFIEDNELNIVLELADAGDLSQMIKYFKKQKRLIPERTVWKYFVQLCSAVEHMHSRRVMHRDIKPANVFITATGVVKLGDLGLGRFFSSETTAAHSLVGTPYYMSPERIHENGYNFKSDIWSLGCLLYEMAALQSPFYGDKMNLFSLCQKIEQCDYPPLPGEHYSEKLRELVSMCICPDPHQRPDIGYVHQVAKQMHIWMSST
Chain of UniProt P10721 (whole entry, unmodified, looked up): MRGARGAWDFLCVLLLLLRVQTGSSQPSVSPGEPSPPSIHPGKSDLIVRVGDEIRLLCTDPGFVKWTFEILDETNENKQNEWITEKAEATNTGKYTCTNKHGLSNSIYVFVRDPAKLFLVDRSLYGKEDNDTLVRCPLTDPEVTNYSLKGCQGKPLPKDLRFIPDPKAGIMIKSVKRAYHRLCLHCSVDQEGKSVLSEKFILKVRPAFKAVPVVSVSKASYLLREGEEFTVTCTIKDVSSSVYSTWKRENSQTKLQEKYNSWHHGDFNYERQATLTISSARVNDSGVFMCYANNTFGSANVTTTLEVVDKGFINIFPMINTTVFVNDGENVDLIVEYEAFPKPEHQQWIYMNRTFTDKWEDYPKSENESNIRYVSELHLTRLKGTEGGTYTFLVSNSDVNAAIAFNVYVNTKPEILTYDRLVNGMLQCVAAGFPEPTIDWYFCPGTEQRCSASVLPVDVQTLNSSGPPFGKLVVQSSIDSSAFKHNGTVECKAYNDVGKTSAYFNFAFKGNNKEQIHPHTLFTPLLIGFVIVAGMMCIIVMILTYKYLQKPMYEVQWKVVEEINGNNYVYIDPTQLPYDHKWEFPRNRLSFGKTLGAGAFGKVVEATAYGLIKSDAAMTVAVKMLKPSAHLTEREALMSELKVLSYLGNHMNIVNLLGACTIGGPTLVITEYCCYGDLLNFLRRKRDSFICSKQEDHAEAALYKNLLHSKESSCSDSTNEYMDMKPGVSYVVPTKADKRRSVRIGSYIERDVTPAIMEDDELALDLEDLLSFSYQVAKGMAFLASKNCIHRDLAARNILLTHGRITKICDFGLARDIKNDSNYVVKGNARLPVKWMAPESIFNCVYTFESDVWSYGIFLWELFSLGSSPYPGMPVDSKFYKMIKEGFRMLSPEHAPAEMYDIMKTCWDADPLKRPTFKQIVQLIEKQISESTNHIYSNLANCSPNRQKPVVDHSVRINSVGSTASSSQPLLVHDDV
Chain of UniProt P45983 (whole entry, looked up): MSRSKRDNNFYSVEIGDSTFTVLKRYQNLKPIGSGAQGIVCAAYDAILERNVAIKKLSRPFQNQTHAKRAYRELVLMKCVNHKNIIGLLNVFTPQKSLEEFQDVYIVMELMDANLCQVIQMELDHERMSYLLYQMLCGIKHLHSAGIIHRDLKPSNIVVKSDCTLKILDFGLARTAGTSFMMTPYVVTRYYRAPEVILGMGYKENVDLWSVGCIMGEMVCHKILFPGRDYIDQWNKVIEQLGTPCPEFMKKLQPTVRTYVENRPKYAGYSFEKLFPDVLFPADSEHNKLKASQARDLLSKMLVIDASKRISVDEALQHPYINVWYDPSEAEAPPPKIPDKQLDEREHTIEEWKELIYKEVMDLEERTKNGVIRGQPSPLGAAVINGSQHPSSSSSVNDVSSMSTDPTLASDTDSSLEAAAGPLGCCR

Series 1
Target: RNA binding protein fox-1 homolog 2, RRM domain, GST-SBP tag (RBFOX2, Homo sapiens, UniProt O43251-10, residues 100-194)
Method: RNA Bind-n-Seq
Form: RNA
Sample: in vitro
Concentration: 365 nM
Setting: natural RNA segment, single round, ends assumed
Baseline: no-protein control
Reading: higher = stronger binding
Endpoint: RBNS enrichment (R)
Constant ends, left off below: GGGAGUUCUACAGUCCGACGAUC … UGGAAUUCUCGGGUGCCAA
UGUGGAGCUGCGGCAGUAGGCCCCCAGCCCCCCCCCGGAGCUGCGCCCUGGAUCCUCACACUACAGAUCAGGCCUUCUUUGGUUCUUGGGUGGUUUUGGGUUUUUUCUGU: 0.82
GUCUCUGGCACCAAAUAACCCAGCAGACAUGAGCCUUGCCUUCUGAGAUUUUAGAAUCUAAGAUAGCACGAGUGGGUAUAGAAGAUGGAAGAUACCGAUAAAUAACAUGG: 0.443
UGCUUGAGUAGGACCAUUUAAACACCUAUUAUGCUAUUCUUGAGAUGGGAUUUUUCAAAGCGGCCAACACUUCACUAAUGUUUCAAAUCAAAACCUUGAGGCUAAUAUUA: 2.06
GUUAUUUGAGAUUAAUUUGGCAUUUGAAAUGAUCAUUUUAUUUUACAAUCAUUUAUAAUGAAUCAAUGUUCCAGUUAGCUUUAAAAGGUAUACGGUGCUAAUUAGUAAAA: 0.667
UCAUUCCUGUCCCUUCCUGGCUUGAGCUCUUGGCUGUAUUCUGUGUGCCUCUACCAUGUCUGCUGUUUGGGUCUCUGCGCUGUGUGUUCUCAGGUGCAGCCAUGACUCCC: 1.08
CAGGGGCAAUGGCCCCAACCUCCCUUUCAGACUCCAUGAGCCCAGCCCCUAUGUGCCUAGAUGGUUUGGGGCUACUGGUGCGUGCAGGAGAGGUGGGGUCACCCAAGCUG: 0.407
UUUUGUUUUGGGGAAAAAAUUGGUAGGUGUCUAAUUACUGUUUACUUCAUUGUUAUAUUGCAGUAAAAGUUUUAAAACAACCAUUGCAUGUUUGCUUUUGAUGUAUCCCU: 34.5
UCAUUUGGCUCCACCUUCAUCUUGCAGAGCCAGCUGAUCUCAGAUUGCCAAGAAACUAGAAGCCACUUGCACGGUGUGGCCAGAGCCUCAGCUGGAUGAGAGGCUGAGAU: 11.9

Series 2
Structure (SMILES): CCCCN(CCCC)C(=O)CN1C[C@@H](c2cc(OC)c3c(c2)OCO3)[C@H](C(=O)O)[C@H]1CC(C)(C)CCC
Effect on: cell-free assay
Method: competition with immobilised ligand
Concentration: 1 µM
Endpoint: remaining binding
Mitogen-activated protein kinase kinase kinase 13 (MAP3K13, Homo sapiens, UniProt O43283): 100%
Tyrosine-protein kinase Lck (LCK, Homo sapiens, UniProt P06239): 99.1%
Ephrin type-A receptor 5 (EPHA5, Homo sapiens, UniProt P54756): 81.9%
Serine/threonine-protein kinase WNK2 (WNK2, Homo sapiens, UniProt Q9Y3S1): 99.3%
Tyrosine-protein kinase BTK (BTK, Homo sapiens, UniProt Q06187): 100%
Mitogen-activated protein kinase 8 (MAPK8, Homo sapiens, UniProt P45983): 92.1%
Serine/threonine-protein kinase Nek6 (NEK6, Homo sapiens, UniProt Q9HC98): 98.1%
Cyclin-dependent kinase 2 (CDK2, Homo sapiens, UniProt P24941): 100%
Mast/stem cell growth factor receptor Kit (KIT, Homo sapiens, UniProt P10721, A829P): 76.5%
Serine/threonine-protein kinase 35 (STK35, Homo sapiens, UniProt Q8TDR2): 100%
Ephrin type-A receptor 6 (EPHA6, Homo sapiens, UniProt Q9UF33): 100%
Tyrosine-protein kinase SYK (SYK, Homo sapiens, UniProt P43405): 100%
Tyrosine-protein kinase FRK (FRK, Homo sapiens, UniProt P42685): 100%

Series 3
Target: Prothrombin, mature alpha-thrombin (F2, Homo sapiens, UniProt P00734)
Method: aptamer microarray, sandwich
Form: DNA with 2'F-ANA
Sample: in vitro
Concentration: 200 nM
Setting: whole 15-mer aptamer, many near background
With: Cy3 exosite-II aptamer, 400 nM
Reading: higher = stronger binding
Endpoint: mean fluorescence intensity
Strand: GGTTGGTGTGGTTGG
2'F-ANA at 1 2 3 4 5 8 9 13: 50.3 a.u.
2'F-ANA at 1 3 5 8 9 10 11 12: 49.3 a.u.
2'F-ANA at 3 4 5 6 7 12 14: 55.1 a.u.
2'F-ANA at 1 2 4 5 7 8 11 12 15: 77.2 a.u.
2'F-ANA at 1 2 6 7 9 10 12 14 15: 152 a.u.
2'F-ANA at 3 4 5 8 13 15: 148 a.u.
2'F-ANA at 4 6 7 8 9 10 14: 68 a.u.
2'F-ANA at 3 4 6 8 9 11 12 13: 598 a.u.

Series 4
SMILES: COc1cc2ncnc(Nc3ccc(OCc4ccccc4)cc3)c2cc1OC
Effect on: enzyme activity
Action: inhibitor
Concentration: 0.5 µM
Baseline: control
Endpoint: remaining activity
Cyclin-dependent kinase 6, with cyclin D3 (CDK6, Homo sapiens, UniProt Q00534): 97.8%
Serine/threonine-protein kinase WNK3 (WNK3, Homo sapiens, UniProt Q9BYP7): 90.8%
Cyclin-dependent kinase 1, with cyclin B (CDK1, Homo sapiens, UniProt P06493): 89.9%
Phosphorylase b kinase gamma catalytic chain, skeletal muscle/heart isoform (PHKG1, Homo sapiens, UniProt Q16816): 100%
Dual specificity tyrosine-phosphorylation-regulated kinase 3 (DYRK3, Homo sapiens, UniProt O43781): 101%

For quick reference, copied from above (series 1):
GUUAUUUGAGAUUAAUUUGGCAUUUGAAAUGAUCAUUUUAUUUUACAAUCAUUUAUAAUGAAUCAAUGUUCCAGUUAGCUUUAAAAGGUAUACGGUGCUAAUUAGUAAAA: 0.667
UCAUUCCUGUCCCUUCCUGGCUUGAGCUCUUGGCUGUAUUCUGUGUGCCUCUACCAUGUCUGCUGUUUGGGUCUCUGCGCUGUGUGUUCUCAGGUGCAGCCAUGACUCCC: 1.08
CAGGGGCAAUGGCCCCAACCUCCCUUUCAGACUCCAUGAGCCCAGCCCCUAUGUGCCUAGAUGGUUUGGGGCUACUGGUGCGUGCAGGAGAGGUGGGGUCACCCAAGCUG: 0.407
UUUUGUUUUGGGGAAAAAAUUGGUAGGUGUCUAAUUACUGUUUACUUCAUUGUUAUAUUGCAGUAAAAGUUUUAAAACAACCAUUGCAUGUUUGCUUUUGAUGUAUCCCU: 34.5
